Results pooled from the literature.
A part holds a random share of what one study measured. Substitutions count along the parent as printed.

Study 1 — technique: protein binding microarray; form: double-stranded DNA, one strand shown; medium: in vitro; concentration: not given; baseline: not given; reading: higher = stronger binding
Target: Histone acetyltransferase KAT6A, winged helix 1, GST fusion (KAT6A, Homo sapiens, UniProt Q92794, residues 1-85)
Setting: 8-mer, flanks averaged, mean of 2 arrays, mostly near background
Residues (chain): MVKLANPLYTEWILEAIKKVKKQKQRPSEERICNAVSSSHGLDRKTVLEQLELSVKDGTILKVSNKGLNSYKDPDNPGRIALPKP
The E-score of `GACTCACA` is reported as -0.272.
With `GCCAAGCC` the E-score was 0.0606.
With `GACCCTGC` the E-score was -0.154.
`CGTAGGAG` has an E-score of 0.0312.
`AGACGTAC` has an E-score of -0.0522.
`GATGACAA` has an E-score of -0.0638.
The E-score of `CCTTAAGC` is reported as 0.0743.

Study 2 — technique: DHFR PCA, deep sequencing; medium: yeast; together with: (+)-ABA 2500 µM; baseline: wild-type fitted maximum; reading: higher = stronger binding
Target: ABI1, truncated, D143A, DHFR fusion (Arabidopsis thaliana)
Setting: methotrexate growth selection, single substitutions
Starting sequence: PYL1, truncated, DHFR fusion (Arabidopsis thaliana); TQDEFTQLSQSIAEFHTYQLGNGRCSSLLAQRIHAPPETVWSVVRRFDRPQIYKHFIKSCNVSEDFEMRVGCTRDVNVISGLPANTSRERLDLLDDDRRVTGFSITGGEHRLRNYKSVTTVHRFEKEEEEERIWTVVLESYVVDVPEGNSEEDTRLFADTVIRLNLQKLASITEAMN
Under “relative binding score”, `E174H` is recorded as 89.8%.
`C25T` — result for “relative binding score”: 98.7%.
`D95S` — result for “relative binding score”: 91.1%.
For `T86M`, “relative binding score” read 93.8%.
`E67H`: “relative binding score” 98.1%.
Under “relative binding score”, `N77H` is recorded as 103%.
`L164M` — result for “relative binding score”: 95.7%.
For `N149A`, “relative binding score” read 86.4%.
`K54C`: “relative binding score” 25%.
`E127R`: “relative binding score” 95.5%.
`P37D` — result for “relative binding score”: 84.3%.
`R111S`: “relative binding score” 80.1%.

Study 3 — technique: RNA Bind-n-Seq; form: RNA; medium: in vitro; concentration: 365 nM; baseline: no-protein control; reading: higher = stronger binding
Target: RNA binding protein fox-1 homolog 2, RRM domain, GST-SBP tag (RBFOX2, Homo sapiens, UniProt O43251-10, residues 100-194)
Setting: natural RNA segment, single round, ends assumed
All sequences stand within: GGGAGUUCUACAGUCCGACGAUC … UGGAAUUCUCGGGUGCCAA
Construct (chain): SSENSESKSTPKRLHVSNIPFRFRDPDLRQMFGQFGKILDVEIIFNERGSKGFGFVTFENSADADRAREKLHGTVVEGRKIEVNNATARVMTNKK
Under “RBNS enrichment (R)”, `UUCUUCUCCCUUAGGGAGGCUCUUGAAGGAGCAGGAGGUACAGUACUGGGUAGCAGUCUGGCCCUCCUGUCGUCUGGUUGGUGUUGGGGCCUCCAGCCAGGGCCCUCUAG` is recorded as 0.283.
Under “RBNS enrichment (R)”, `UGGGGAGGGGUUCUUUAGACUCUUGAAGGCAACUCAGGGUAUUGUCCACCCAGCUAUGUAGUUAGACUUCUCCCAGGGAAUGAGUGUGGCAUUUCCUUCAUAGAUAGACC` is recorded as 0.929.
Under “RBNS enrichment (R)”, `UCUUGUCCCUGGUUUCCUUAUGUGUUGAAUGUGGUUGAGUUUGUCCAUUGCUAGGGAGAGACUUCCAGUAAUAAAAUUUACUAUUCUAGAUGCUUCUACUGUUAUGUUUU` is recorded as 6.
Under “RBNS enrichment (R)”, `AUUAACUCCCCUUUCCCUCAAACUCUCACGGCCUGAUGAUUGUCCCUCUCAGGGAUGAGACAUGGACAGGUCUCUGGAACGUUAUGGGUAAUGAGCCCCAGCAACUGUCC` is recorded as 0.296.
`UGGGGUUGAGGUUUGGGAAGCAGGCAGCAAGCGUUACCUUUGCAGAAGACUCGUGUCUUGCUGUAGAAUCCAGUUUGGUUUCAGCAGCUUGACUUAAUGCACUUACAGGC`: “RBNS enrichment (R)” 0.742.
`ACCACACUUGGUGGAGCCCGAUUCCCUUGUCUCAGACCAUGGUUAGUUACAUAAUUUUAUGGACUAUAGAGAUGGCGUCCCACUGAUGUGAGAAACAUCACAACAGCGAG` — result for “RBNS enrichment (R)”: 0.183.
`AGCUUGAAUGCUUAAAUAUGUGCACCUUUACAAACCUCUCAGUGUAUUCUUGGAGUUCUUGAAAUGUUGUUUUAAUAUUUGUUGCCAGUAAUGUUCUUUCUUCACAGCCG`: “RBNS enrichment (R)” 0.196.

Mixed results
The fold induction of `PhoQ, residues 284 288 289 292 302 303 GASLAW` is reported as 3.38 (PhoP, residues 12 14 15 18 19 NYFTV (Escherichia coli, UniProt P23836); Sort-seq, measured: YFP reporter; E. coli; PhoQ-PhoP variant library, together with: 10 µM Mg2+; baseline: high Mg2+ state, higher = stronger signaling).

Repeated from above (study 1):
`AGACGTAC` has an E-score of -0.0522.
The E-score of `GACTCACA` is reported as -0.272.
The E-score of `CCTTAAGC` is reported as 0.0743.
